Experimental data from different studies.
Numbers after ± are the reported error.
MAPK14: Mitogen-activated protein kinase 14 (MAPK14, Homo sapiens, UniProt Q16539)
UniProt Q16539, sequence (whole entry, looked up): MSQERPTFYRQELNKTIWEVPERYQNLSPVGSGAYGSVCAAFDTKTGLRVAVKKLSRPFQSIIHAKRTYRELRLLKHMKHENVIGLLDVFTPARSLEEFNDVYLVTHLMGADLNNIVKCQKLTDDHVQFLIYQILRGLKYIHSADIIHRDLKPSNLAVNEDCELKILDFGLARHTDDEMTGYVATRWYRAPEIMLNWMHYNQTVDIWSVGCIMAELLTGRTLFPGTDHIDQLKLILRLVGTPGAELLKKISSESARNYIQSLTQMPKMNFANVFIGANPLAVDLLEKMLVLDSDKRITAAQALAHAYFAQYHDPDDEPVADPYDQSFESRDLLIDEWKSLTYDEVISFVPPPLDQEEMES
CXCR4: C-X-C chemokine receptor type 4 (CXCR4, Homo sapiens, UniProt P61073)
T1: RNA aptamer; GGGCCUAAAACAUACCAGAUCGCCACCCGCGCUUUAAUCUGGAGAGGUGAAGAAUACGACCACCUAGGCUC
T2: RNA aptamer; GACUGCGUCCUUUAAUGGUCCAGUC
UniProt P58418, sequence (whole entry, unmodified, looked up): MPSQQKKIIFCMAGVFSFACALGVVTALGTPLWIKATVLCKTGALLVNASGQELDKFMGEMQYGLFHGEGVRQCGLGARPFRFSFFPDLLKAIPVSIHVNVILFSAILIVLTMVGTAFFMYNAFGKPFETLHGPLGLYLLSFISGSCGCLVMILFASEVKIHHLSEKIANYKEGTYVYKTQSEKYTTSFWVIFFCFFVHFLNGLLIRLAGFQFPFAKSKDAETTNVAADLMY
UniProt P23141, sequence (whole entry, looked up): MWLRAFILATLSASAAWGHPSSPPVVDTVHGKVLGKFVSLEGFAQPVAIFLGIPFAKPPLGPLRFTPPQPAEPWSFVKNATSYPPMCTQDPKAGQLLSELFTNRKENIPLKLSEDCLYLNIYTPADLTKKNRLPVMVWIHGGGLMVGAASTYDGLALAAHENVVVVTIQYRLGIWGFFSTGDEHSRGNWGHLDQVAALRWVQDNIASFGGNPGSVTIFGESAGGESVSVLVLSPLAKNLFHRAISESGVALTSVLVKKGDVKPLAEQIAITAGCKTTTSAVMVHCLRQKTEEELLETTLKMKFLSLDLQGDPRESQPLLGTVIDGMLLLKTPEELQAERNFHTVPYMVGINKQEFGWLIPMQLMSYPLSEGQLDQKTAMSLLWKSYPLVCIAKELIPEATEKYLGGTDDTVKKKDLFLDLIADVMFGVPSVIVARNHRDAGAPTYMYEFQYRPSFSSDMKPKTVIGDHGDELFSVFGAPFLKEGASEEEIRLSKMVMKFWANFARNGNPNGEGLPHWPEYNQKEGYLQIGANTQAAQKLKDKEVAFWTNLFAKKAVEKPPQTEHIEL
UniProt P28907, sequence (whole entry, looked up): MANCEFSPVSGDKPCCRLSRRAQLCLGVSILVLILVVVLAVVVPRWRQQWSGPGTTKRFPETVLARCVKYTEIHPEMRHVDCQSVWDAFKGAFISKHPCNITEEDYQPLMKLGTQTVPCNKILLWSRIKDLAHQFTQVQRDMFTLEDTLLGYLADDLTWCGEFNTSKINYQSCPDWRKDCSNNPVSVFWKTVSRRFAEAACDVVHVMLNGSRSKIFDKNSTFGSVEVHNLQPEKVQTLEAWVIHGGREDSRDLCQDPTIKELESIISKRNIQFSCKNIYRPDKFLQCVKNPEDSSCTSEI
UniProt P08246, sequence (whole entry, looked up): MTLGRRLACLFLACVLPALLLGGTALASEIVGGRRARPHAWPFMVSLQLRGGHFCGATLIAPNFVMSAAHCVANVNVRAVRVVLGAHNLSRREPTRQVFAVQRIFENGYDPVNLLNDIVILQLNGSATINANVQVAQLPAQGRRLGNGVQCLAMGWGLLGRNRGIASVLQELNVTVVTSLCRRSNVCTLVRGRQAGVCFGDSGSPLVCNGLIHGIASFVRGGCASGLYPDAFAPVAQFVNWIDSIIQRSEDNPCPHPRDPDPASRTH

Compound | target or system | test | test system | setting | how to read | endpoint | result
C[C@H]1c2cccc(O)c2C(=O)C2=C(O)[C@]3(O)C(=O)C(C(N)=O)=C(O)[C@@H](N(C)C)[C@@H]3[C@@H](O)[C@@H]21 | T1, RNA aptamer | fluorescence titration |  | pH 7.5, 25 °C, MgCl2 10 mM |  | Kd | 0.118 µM
O=C(Nc1ccc(C(=O)Nc2ccc(C(=O)Nc3ccc(S(=O)(=O)O)c4cc(S(=O)(=O)O)cc(S(=O)(=O)O)c34)cc2)cc1)Nc1ccc(C(=O)Nc2ccc(C(=O)Nc3ccc(S(=O)(=O)O)c4cc(S(=O)(=O)O)cc(S(=O)(=O)O)c34)cc2)cc1 | Neutrophil elastase (ELANE, Homo sapiens, UniProt P08246) | substrate S-1384 hydrolysis |  | pH 7.4, 37 °C, enzyme 100 nM |  | Vmax | 30.6 ± 1.56 mAU/min
CC(=O)NCCN(CC(=O)NCCN(CC(=O)NCCN(CC(=O)NCCC(N)=O)C(=O)C[C@@H](N)CCCCN)C(=O)C[C@@H](N)Cc1ccccc1)C(=O)C[C@@H](N)Cc1ccccc1 | HIV-1 TAR RNA |  |  | concentration not given |  | heat capacity change ΔCp | -1.04 ± 0.19 kJ/mol/K
CNc1cncc(-c2ccc(OC)c(OC)c2)n1 | MAPK14 | enzyme activity |  |  |  | ligand efficiency | 0.2
COc1cc(OC)c2c(c1)C(=O)c1cc3oc(=O)cc(-c4ccccc4)c3c(O)c1C2=O | mushroom tyrosinase | enzyme activity |  | 50 µg/mL, added: L-DOPA |  | inhibition | 32.53 ± 0.32%
COc1cc(/C=C2/SC(=S)N(CC(=O)Nc3cccc(C(=O)O)c3)C2=O)cc(OC)c1OC | CD38 (Homo sapiens, UniProt P28907) | hydrolase activity, fluorometric |  | 50 µM, added: ε-NAD+ substrate | baseline: untreated | remaining activity | 98 ± 3.9%
CCCCCCCC(=O)Nc1ccc(C#N)nc1C | CES1 (Homo sapiens, UniProt P23141) | substrate |  | 50 µM, pH 8, 37 °C, enzyme purity 25% |  | specific activity | 63 pmol/min/µg
N=C(N)NCCC[C@@H]1NC(=O)[C@H](CCCCNC(=O)CC[C@H](NC(=O)CC[C@H](NC(=O)CN2CCN(CC(=O)O)CCN(CC(=O)O)CCN(CC(=O)O)CC2)C(=O)N[C@@H](CCC(=O)NCCCC[C@@H]2NC(=O)[C@@H](Cc3ccccc3)NC(=O)[C@H](CC(=O)O)NC(=O)CNC(=O)[C@H](CCCNC(=N)N)NC2=O)C(=O)NCCCC[C@@H]2NC(=O)[C@@H](Cc3ccccc3)NC(=O)[C@H](CC(=O)O)NC(=O)CNC(=O)[C@H](CCCNC(=N)N)NC2=O)C(=O)NCCCC[C@@H]2NC(=O)[C@@H](Cc3ccccc3)NC(=O)[C@H](CC(=O)O)NC(=O)CNC(=O)[C@H](CCCNC(=N)N)NC2=O)NC(=O)[C@@H](Cc2ccccc2)NC(=O)[C@H](CC(=O)O)NC(=O)CNC1=O [indium-111 labelled] |  |  | female athymic nu/nu mice, kidney | intravenous, 72 h |  | tissue uptake | 3.48 ± 1.1 %ID/g
COc1ccc(NC(=O)N2CCCCN3[C@H](CN(C)C)[C@H](c4ccc(C#Cc5ccccc5)cc4)[C@@H]3C2)cc1 | Toxoplasma gondii | parasite growth, luciferase | HFF, RH type I luciferase |  |  | EC90 | 0.0987 mg/L
N[C@@H](Cc1ccc(O)c(O)c1)C(=O)O | polyphenol oxidase Crocus sativus | substrate | sprouting corm enzyme | pH 6.8 |  | Km | 2120 µM
NC[C@@H]1O[C@H](O[C@H]2[C@@H](O)[C@H](O[C@@H]3[C@@H](O)[C@H](N)C[C@H](N)[C@H]3O[C@H]3O[C@H](CN)[C@@H](O)[C@H](O)[C@H]3N)O[C@@H]2CO)[C@H](N)[C@@H](O)[C@@H]1O | T2, RNA aptamer | UV melting |  | 1 µM RNA, 10 µM molecule, pH 6.8, NaCl 100 mM |  | melting temperature change | 16.1 °C
[64Cu+2].c1ccc(CNCc2ccc(CN3CCCN4CCNCCCN(CC4)CC3)cc2)nc1 | CXCR4 |  | NOD/SCID mice, U87 xenografts, U87-stb-CXCR4 tumour | 60 min post-injection |  | tissue uptake | 18.9 ± 4.88 %ID/g
CC[C@H]1[C@@H](O)[C@@H]2[C@H](CC[C@]3(C)[C@@H]([C@H](C)CCOS(=O)(=O)[O-])CC[C@@H]23)[C@@]2(C)CC[C@@H](O)C[C@@H]12.[Na+] |  |  | ob/ob NASH mice, blood | oral, 3 mg/kg once daily, week 8 |  | fed blood glucose | 6.8 ± 0.2 mmol/L
CC(C)(O)Cn1nc(-c2ccccc2)c2c(Cl)c(-c3ccccc3)nnc21 | Clarin-1 (CLRN1, Homo sapiens, UniProt P58418, N48K) | CLRN1 N48K expression | D6 | 0.5 h exposure then 24 h in compound-free medium |  | EC90 | 15 µM
C=CCC1NC(=O)C=CC(=O)NC(C(N)=O)CCNC(=O)C(CCCNC(=O)c2cnccn2)NC(=O)C(Cc2ccco2)NC1=O (stereo not drawn) | MAPK14 | DNA-templated library selection |  | one selection round |  | enrichment factor | 1
COc1ccc(NC(=O)N2CCCN3CCC(c4ccc(C#Cc5cccnn5)cc4)C3C2)cc1 (stereo not drawn) | Toxoplasma gondii | parasite growth | HFF, RH type I luciferase |  |  | EC90 | 3.63 ± 0.13 µM
[64Cu+2].c1cnc(CNCc2ccc(CN3CCCN4CCNCCCN(CC4)CC3)cc2)nc1 | CXCR4 |  | NOD/SCID mice, U87 xenografts, U87-stb-CXCR4 tumour | 30 min post-injection |  | tissue uptake | 26.8 ± 2.98 %ID/g
CC(=O)NCCN(CC(=O)NCCN(CC(=O)NCCN(CC(=O)NCCC(N)=O)C(=O)C[C@@H](N)CCCNC(=N)N)C(=O)C[C@@H](N)CCCCN)C(=O)C[C@@H](N)Cc1ccccc1 | HIV-1 TAR RNA |  |  | extrapolated to 1 M KCl |  | non-electrostatic ΔG° | -30.7 ± 0.4 kJ/mol
